Assay results from different studies.
Numbered parts are unrelated; each lists some results of a single study.

Series 1
Target: RNA binding protein fox-1 homolog 2, RRM domain, GST-SBP tag (RBFOX2, Homo sapiens, UniProt O43251-10, residues 100-194)
Method: RNA Bind-n-Seq
Form: RNA
Matrix: in vitro
Concentration: 365 nM
Notes: natural RNA segment, single round, ends assumed
Relative to: no-protein control
Reading: higher = stronger binding
Construct (chain): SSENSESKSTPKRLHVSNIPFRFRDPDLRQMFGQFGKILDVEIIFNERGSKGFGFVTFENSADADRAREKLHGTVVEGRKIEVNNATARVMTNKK
| Sequence | RBNS enrichment (R) |
| --- | --- |
| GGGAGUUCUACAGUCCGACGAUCCUCUAAAAUUAAAUUUUACAUAAAAGUUAGUUUUAUUCACCUUUAGGCUUUCCAAGUGAAUUGUGACUAAUUUUUUCAAUCUUACAUAGAUCUUUCACCCAUUAGCAUUAUGGAAUUCUCGGGUGCCAA | 1.23 |
| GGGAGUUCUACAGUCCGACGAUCCAGUGUCUAGCAAUGGUUUGGUUUGCAGAGAACACAGCCUGAUACUUAAUUUUCUUAAAACUAUUUUUAAUGAUCCACUAAACAAAGCAGGGGAUCCUGAAGCUGAUAUAUGGAAUUCUCGGGUGCCAA | 0.504 |
| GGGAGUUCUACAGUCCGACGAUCUGCUAAUAAUGUCUUGUUUGGGUCUCCCAAACCCUACCUCUCAACUCCCUUAAGAGUAUCACUGUUCUGAAGCUAAAAUGCUUCAGUCUCAAAUUUAGGGGCAAAGUGGAUGGAAUUCUCGGGUGCCAA | 0.457 |
| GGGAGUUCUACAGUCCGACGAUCUCUGAUGUUCCGCCCCACUGUGAAGAGUGUGCUCGUUUUAAAUUCAUGUUGAUUCUUGUAAGCACUGGACUGUCUUCAUCAAGUAUUUCCCUACAGAACUCCUCAAGAAAUGGAAUUCUCGGGUGCCAA | 0.717 |
| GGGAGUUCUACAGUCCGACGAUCCUUCAUAAAAAUCUGACCAAUCUACUAAAAUACUGCAGGCGUGAAAGGUUCUGUUGGAGCUGAAUGUCAUGAUGUUUAUCAUCCAGCAAGCCCUCCUUCUCACAUAGCAAUGGAAUUCUCGGGUGCCAA | 0.424 |
| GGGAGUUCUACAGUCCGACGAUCAGUUCAUUCCACUUUAGGAAACAGAGCUGCCAAUUGAAACAGAAGAAGAAAAAAAAAAAAAGCAGCAGACAACACACUGUAGAGUCUUGCACACACACAAGUGCCCAGGCUGGAAUUCUCGGGUGCCAA | 0.699 |
| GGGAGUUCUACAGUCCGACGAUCAUGUUGUGUAUGUUUUAACAUCUCUGAUGCUGUGUUACUAAAAUUACAAGGACCUGCUUUUUAAAAGGCCAGAACAAUUGUCUGAAAUUAGUAACAAUGCUGCAUCUAGAUGGAAUUCUCGGGUGCCAA | 0.293 |
| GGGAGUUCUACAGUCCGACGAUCGUUGCUGGGACCCAGGAGGAAAGGGGAAGAUGUCCUGUUUCCUAUCCUAGGUGUGGACGCCCGCCUUGCCCUUUGUUAGCUUCCUGGGUUCCCAUGAACUCAGGGAUUUGUGGAAUUCUCGGGUGCCAA | 0.354 |

Series 2
Target: Interferon regulatory factor 7, full length, phosphomimetic (IRF7, Homo sapiens, UniProt Q92985, residues 1-503, S101K/S471D/S472D/S475D/S476D/S477D/S483D/S484D/S487D)
Method: protein-binding microarray
Form: double-stranded DNA, one strand shown
Matrix: in vitro
Concentration: 250 nM
Notes: 60-bp whole probe
Added: salmon DNA 0.4 mg/ml
Relative to: random background probes
Reading: higher = stronger binding
Constant ends, left off below: GCCTAGCAC … GTCTTGATTCGCTTGACGCTGCTG
Construct (chain): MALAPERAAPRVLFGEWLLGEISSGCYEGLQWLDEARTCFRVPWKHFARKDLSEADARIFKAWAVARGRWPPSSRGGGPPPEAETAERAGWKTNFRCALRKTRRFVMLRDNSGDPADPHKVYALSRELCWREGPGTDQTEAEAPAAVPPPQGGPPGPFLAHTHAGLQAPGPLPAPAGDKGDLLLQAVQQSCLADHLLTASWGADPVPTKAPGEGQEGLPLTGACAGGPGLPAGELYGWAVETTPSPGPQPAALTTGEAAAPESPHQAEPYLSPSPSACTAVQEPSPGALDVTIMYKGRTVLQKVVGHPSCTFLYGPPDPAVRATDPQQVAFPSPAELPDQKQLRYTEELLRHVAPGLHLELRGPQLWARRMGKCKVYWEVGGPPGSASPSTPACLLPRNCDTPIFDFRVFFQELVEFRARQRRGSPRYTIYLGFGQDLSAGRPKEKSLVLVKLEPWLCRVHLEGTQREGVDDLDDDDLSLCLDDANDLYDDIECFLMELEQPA
| Sequence | log fluorescence |
| --- | --- |
| GACGGTTCCCTTTTCCTGGCGTGCTAG | 2.74 z-score |
| TTTGCTTTCTTTATGCACTCGTGCTAG | 0.849 z-score |
| TTAGGACTGGGTTTTCGGTTAGTGCTA | 1.55 z-score |
| TTAGATATCGGGTTTAGATTAGTGCTA | 0.371 z-score |
| CAGATTTGGCATATCTATTTGTGCTAG | 0.432 z-score |
| AAGACTTTGGTTTGTACACCGTGCTAG | 0.0808 z-score |
| TCAGATGTGGGACTCACACTGTGCTAG | -0.28 z-score |
| TTAGATATCAGACTGGATGAGTGCTAG | -0.179 z-score |
| TCACTTTCCAATTGTCCTACTGTGCTA | 3.82 z-score |
| TCAATTATTGTTTCCTCACTGTGCTAG | 1.3 z-score |
| GACAGTTTCGGTTTCGGGACGTGCTAG | 14.2 z-score |
| GACGTTTTCGGTATCGGGACGTGCTAG | 3.4 z-score |
| TTAGAACTGGGTATCGGTTAGTGCTAG | 0.899 z-score |
| TCAGCTTTCTCTTTCATACTGTGCTAG | 0.808 z-score |
| CATTATTTCAATGCAAGGTGGTGCTAG | 0.754 z-score |
| GACCATTTCAGACTGGAGACGTGCTAG | 0.856 z-score |
| CTCACCGCTGGAGTTCTGCGGTGCTAG | -0.653 z-score |
| GACCGTATCCTTCTCCTGACGTGCTAG | 0.767 z-score |
| GACAGTTTCCTTATCCTGACGTGCTAG | 3.01 z-score |

Series 3
Target: RING finger protein unkempt homolog, zinc fingers 1-6, GST-SBP tag (UNK, Homo sapiens, UniProt Q9C0B0, residues 30-357)
Method: RNA Bind-n-Seq
Form: RNA
Matrix: in vitro
Concentration: not given
Notes: RNA with constant flanks, ends assumed
Relative to: input RNA pool
Reading: higher = stronger binding
Construct (chain): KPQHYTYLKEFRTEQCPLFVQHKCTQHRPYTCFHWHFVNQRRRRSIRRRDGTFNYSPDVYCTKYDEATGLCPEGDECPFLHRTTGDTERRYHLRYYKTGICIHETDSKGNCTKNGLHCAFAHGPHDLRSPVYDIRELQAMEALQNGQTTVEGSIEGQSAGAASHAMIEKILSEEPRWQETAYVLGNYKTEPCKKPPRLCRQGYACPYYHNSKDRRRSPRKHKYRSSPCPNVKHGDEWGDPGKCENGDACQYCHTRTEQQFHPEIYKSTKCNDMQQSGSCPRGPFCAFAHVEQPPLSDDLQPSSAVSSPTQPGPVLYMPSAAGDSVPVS
| Sequence | bound/input enrichment [ratio] |
| --- | --- |
| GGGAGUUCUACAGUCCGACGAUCACUCCAAAGCCACUUCGAAGUAGUGCUGAUCCUGCACUGAAUCAAGAGGUUGCAUUAAAAUCCGAAUCAAGUCCAGAGUCACUGGGACUUUCUUUUACCAUGCCCCAGAUUCAAGAUCAGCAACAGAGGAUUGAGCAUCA | 0.132 |
| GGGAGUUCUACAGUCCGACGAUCAUAUAUAUUCACUUGCAUUCAUGCAGAACACAAGCUUUGCUGUACAAAAUGUUGUGUUUCUCCGUGAUUUUAAAAGGCAUGCUUUGCAUGCAAAGGAAAACCAUUGCAGUUAGUCUUUUCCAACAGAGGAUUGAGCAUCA | 0.669 |
| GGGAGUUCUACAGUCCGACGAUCAAUGUUACUUCUAUGAUAAACUUAAAGACCAUUGCUUCAUCAGCAGAUCCUAAAAAUGUCCGUAUACCAUCUUCUGAAGCUUUAUCUUCGGAUCCUUCCUACAACAAAGAAAAACACAUUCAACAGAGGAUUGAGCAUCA | 0.182 |
| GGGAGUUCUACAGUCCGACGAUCAACUGUAUCUGUGAUAUUGAAAAUUGUUCCAACAUGGCACCCCUCUACAGUGACUCUUACUCCGUCUUCUGGGCCAUUUUCAACUUGGUGACCUUUGUGGUAAUGGUGGUUCUCUAUGCUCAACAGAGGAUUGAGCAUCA | 0.552 |
| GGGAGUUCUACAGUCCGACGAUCGGUAAGCUCAUCGCAGUGAUCGGAGACGAGGACACGGUGACUGGUUUCCUGCUGGGCGGCACCGGGGAGCUUAACAAGAACCGCCAUCCCAAUUUCCUGGUGGUGGAGAAGGAUACAACCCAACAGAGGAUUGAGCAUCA | 0.168 |
| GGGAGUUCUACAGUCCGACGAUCUUACGCUCUCCCGCGGCACGUCCGCGAGGACUUGAAGUCCUGAGCGCUCAAGUUUGUCCGCCGGUCGAGAGAAGGCCAUGGAGGUGCCGCCACCGGCACCGCGGAGCUUUCUCUGUAGAGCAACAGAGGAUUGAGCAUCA | 0.0748 |
| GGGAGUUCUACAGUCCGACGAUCUCUGCAGAGCUGAGGGCGCCGUCUUCGGCCAGGCCGUGACACGGUGAAUUAAAGUCGGCUACCGAUUUCUGUGAAAAUGUCGGUUCUUAUAUCACAGAGUGUGAUAAAUUAUGUGGAAGACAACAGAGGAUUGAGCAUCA | 0.136 |
| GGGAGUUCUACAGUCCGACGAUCGAUAUAGAAGUGAGACAUGCACUCAACUAUAAUCAGAGACAAUUGAAAGAACUGAAAGACCGUAAAACUGAUCGACUAAAAAGAUUUGGUCCUCAUGUUCCAGCUCUUCUGGAAGCAAUACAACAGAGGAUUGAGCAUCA | 0.167 |

Series 4
Target: Sal-like protein 4, full length isoform A (SALL4, Homo sapiens, UniProt Q9UJQ4, residues 1-1053)
Chain of UniProt Q9UJQ4 (whole entry, looked up): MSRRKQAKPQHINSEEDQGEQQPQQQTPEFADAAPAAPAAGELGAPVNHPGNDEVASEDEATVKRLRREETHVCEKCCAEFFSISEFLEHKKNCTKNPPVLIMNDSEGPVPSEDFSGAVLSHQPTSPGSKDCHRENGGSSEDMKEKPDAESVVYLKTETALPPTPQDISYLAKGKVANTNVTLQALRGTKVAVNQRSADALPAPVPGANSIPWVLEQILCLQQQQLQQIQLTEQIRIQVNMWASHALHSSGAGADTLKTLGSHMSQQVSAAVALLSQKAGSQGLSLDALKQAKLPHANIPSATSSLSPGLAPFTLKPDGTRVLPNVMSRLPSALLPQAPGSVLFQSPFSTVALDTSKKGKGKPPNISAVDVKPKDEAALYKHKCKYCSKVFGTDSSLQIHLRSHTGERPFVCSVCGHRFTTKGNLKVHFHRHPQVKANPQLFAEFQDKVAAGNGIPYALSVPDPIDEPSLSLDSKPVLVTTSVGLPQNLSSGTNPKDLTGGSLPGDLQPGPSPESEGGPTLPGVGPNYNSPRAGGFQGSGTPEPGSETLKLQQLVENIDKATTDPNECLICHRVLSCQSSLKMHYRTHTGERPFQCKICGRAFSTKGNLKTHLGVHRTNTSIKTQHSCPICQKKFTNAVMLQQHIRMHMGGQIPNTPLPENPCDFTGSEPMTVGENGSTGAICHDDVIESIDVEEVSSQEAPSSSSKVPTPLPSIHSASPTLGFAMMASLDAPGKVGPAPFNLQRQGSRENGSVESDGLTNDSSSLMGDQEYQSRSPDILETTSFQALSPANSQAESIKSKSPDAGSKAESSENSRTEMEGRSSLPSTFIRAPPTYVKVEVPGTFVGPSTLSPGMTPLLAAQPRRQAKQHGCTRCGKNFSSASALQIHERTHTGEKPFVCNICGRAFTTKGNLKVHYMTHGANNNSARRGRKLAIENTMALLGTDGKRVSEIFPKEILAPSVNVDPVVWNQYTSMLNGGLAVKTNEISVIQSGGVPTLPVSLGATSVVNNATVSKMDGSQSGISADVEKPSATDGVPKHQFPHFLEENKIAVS
Method: universal PBM
Form: double-stranded DNA, one strand shown
Matrix: in vitro
Concentration: 600 nM
Notes: 8-mer, flanks averaged, mean of replicates
Reading: higher = stronger binding
| Sequence | E-score |
| --- | --- |
| CAAGGGCC | -0.31 |
| GTGACGAA | -0.0839 |
| TGCCACCA | -0.196 |
| CTGCGAGC | -0.113 |
| CTCACGAA | -0.0783 |
| ACGCCCTA | -0.156 |
| CCCCCATC | -0.177 |
| GAATTGAA | 0.22 |
| ACCACGAA | 0.00584 |
| CTCTGTGC | -0.137 |
| ATGCTCGC | -0.124 |
| TCCGGTCA | -0.304 |
| AGATAAAG | 0.23 |
| AAAGATAG | 0.201 |
| GGAAATGA | 0.234 |
| AGGAGTAT | 0.0164 |
| GTGGTAGA | -0.138 |
| CGCCCGTC | -0.219 |
| CTGCGAGA | -0.284 |
| GGTAGGAA | -0.0301 |
| CACCGACC | -0.281 |
| GAGTACTC | -0.0717 |
| CCATGTCC | -0.213 |
| GTCAGCAA | 0.0899 |
| GACCCAGA | -0.294 |

Some of these lines once more (series 4):
| Sequence | E-score |
| --- | --- |
| CACCGACC | -0.281 |
| GAGTACTC | -0.0717 |
| CCATGTCC | -0.213 |
| GTCAGCAA | 0.0899 |
